Measured values collected from several papers.
Protocols differ between the studies behind these lines. Numbers after ± are the reported error.
AfsR 1-980: AfsR 1-980 (Streptomyces avermitilis)
LysR family transcriptional regulator 1-307: LysR family transcriptional regulator 1-307 (Pseudomonas savastanoi pv. phaseolicola, UniProt Q48CZ9)
T1: AfsR 1-980 (Streptomyces avermitilis); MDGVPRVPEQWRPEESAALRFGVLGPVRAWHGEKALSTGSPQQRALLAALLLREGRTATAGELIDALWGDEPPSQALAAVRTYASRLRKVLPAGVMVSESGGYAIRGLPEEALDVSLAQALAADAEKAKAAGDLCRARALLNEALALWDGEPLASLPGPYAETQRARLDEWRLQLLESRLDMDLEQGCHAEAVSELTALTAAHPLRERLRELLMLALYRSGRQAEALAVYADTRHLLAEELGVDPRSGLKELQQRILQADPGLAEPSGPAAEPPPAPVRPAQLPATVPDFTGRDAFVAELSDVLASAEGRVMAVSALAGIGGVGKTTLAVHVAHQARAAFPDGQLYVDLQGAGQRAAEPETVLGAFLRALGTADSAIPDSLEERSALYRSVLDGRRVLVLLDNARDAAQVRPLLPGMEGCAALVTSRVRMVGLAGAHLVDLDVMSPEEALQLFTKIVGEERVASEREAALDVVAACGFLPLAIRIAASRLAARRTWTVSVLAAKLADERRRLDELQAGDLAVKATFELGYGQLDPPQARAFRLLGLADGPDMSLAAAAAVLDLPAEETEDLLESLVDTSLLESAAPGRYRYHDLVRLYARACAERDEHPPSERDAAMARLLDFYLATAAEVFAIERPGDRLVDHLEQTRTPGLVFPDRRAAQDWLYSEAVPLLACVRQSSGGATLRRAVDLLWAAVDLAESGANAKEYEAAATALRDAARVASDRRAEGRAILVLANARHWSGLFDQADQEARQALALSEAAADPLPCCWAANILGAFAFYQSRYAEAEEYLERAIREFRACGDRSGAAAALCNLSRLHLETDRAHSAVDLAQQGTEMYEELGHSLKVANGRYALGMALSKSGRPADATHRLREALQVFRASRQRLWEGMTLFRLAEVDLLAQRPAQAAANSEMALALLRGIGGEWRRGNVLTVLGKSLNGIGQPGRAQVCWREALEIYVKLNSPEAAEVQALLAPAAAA
UniProt Q99VT5, sequence (whole entry, looked up): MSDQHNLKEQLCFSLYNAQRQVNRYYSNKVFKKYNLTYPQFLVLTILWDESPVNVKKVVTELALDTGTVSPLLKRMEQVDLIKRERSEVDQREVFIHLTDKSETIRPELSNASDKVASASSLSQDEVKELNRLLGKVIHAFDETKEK
UniProt P26993, sequence (whole entry, looked up): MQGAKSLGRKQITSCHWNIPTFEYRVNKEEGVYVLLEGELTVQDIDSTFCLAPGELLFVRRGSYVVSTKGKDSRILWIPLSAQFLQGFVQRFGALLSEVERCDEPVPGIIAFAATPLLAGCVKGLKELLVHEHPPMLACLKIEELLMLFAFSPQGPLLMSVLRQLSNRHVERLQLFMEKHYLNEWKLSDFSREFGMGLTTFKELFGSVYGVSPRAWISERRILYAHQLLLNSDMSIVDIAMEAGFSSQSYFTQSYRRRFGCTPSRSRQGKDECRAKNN
UniProt P33240, sequence (whole entry, looked up): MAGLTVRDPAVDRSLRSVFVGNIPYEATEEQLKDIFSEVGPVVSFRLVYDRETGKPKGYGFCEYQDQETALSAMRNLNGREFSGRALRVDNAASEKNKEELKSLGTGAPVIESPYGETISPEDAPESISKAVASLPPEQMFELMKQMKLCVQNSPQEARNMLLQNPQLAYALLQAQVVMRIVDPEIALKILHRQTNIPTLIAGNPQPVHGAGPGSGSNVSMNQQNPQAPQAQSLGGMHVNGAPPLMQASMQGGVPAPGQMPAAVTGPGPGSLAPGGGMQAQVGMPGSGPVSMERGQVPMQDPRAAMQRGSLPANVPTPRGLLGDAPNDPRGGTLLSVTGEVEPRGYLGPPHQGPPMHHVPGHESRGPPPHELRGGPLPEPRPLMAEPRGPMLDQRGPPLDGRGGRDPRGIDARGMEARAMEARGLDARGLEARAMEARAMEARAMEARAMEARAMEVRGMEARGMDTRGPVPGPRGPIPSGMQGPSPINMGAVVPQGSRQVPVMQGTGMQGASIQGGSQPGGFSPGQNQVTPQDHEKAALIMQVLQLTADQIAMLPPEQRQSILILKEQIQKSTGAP

Molecule	tested on	assay	system	conditions	how to read	endpoint	result
CCGCCATCCCCGTGGCAACCGCCCCCTCGCGTCCACCCCGGCAGGCCGTCCGCGGTTGCGCCGGAACAGGCGTTGCCATCGACATACCGTGCTCCGCAGAAAAATAACCGCCTCGACCTGAGACCTTTTTCCTTCTCGGCTGGCAAGTAGAGGAATCCGCCCCGACCCAAGGTCCGCAGAGACCACGAGGAACCCTGTACATGCCCGT (dsDNA (Pseudomonas aeruginosa))	exsA full length assumed (Pseudomonas aeruginosa, UniProt P26993)	EMSA	double-stranded DNA, one strand shown	20 nM, two shifted bands		binding	binds
ATTCGGCGTAAGGTGTGGCGCGTGGGTTTGCCTGAGAGGGCTCTCGGGTACACCATGGAAGTCACGGATCGTTCGCGACCGTGCTAACCCGGTCCGACTCCTCCCCCCCCGAGTCGGCCGTGGGGACGACCCCCGCTCTCCCCCCCGGCGGGGGTCGTCGCATGTCCGGATGGGTTTTCCTCCTTCTTTCAACGGTTTTTGAGCCTCGTCGCGGCCTCCCGGGCCGCTCTTTTTTATTCCCGTGAT (dsDNA)	T1, AfsR 1-980 (Streptomyces avermitilis)	EMSA	double-stranded DNA, one strand shown			binding	no binding
GATTACTTTTTTGCAATTTCATATGATCAATCCCCTTTATTTTAATATGTCATTAATTATACAATTAAATGGAAAATAGTGATAATTACAAAGAAAAAAATATTGTCAAATGTAGCAATGTTGTAATACAATATAGAAACTTTTTACGAATATTTAGCATGAATTGCAATTTGTCGTGGAAAAGAAGAATAACAGATTTAAGAATGACATGGAGAAAAAAGAGGTGAGCAT (dsDNA)	mgrA full length assumed (Staphylococcus aureus, UniProt Q99VT5)	EMSA	double-stranded DNA, one strand shown			Kd	9200 ± 4200 nM
GGAGACAUAUAUCACAGCCUGUCUCC (RNA (Hepatitis C virus); hairpin; 12 nt loop)	HNRNPA1 UP1 1-196 (Homo sapiens)	ITC	folded RNA			Kd	128 ± 6 nM
GATTAGGGGGCGTATCAGCTAGGCACGGGGGCAGCTCTCATCGTGCAATCAGACCAAGCACACTCTAGGCTGGTAAAAGAAGAAGAAACATAGCTAATATTTGCCTTCGAAATTTTGAAAAGCAAGGAGCTGCGATTATGTCTTTTGATGCTTTTATGAAAGTTGATGGTGTTGAGGGCGAGTCTCTTGACGATGGTCACAGAG (dsDNA)	LysR family transcriptional regulator 1-307	EMSA	double-stranded DNA, one strand shown			binding	binds
GCACTGCTACGGCTGATCACATAGGGTGAAAAGAAAAACGGGAGGTTCGGCGTGTTCGTTGAACGTGCGCCACTTGTCGACTTAGTGTCCTGTTCGGAAGAGTCCAGGGAACAGACACACTGGTAACCCTAAACTTCAGCGTTAGGGTTCGGGTCGGCGTTCGGACCGTCCCATTCGGCATCAGTCGTCGGATCGCGTCATCCGCGAGGCGGCGACACGTAACTCGAGGCGA (dsDNA)	T1, AfsR 1-980 (Streptomyces avermitilis)	EMSA	double-stranded DNA, one strand shown			binding	binds
UAUAUCACAGCC (ssRNA)	HNRNPA1 UP1 1-196 (Homo sapiens)	ITC	RNA			Kd	224 ± 13 nM
GGGGCAGCAGACGGCCAACACCCGCCACTCGCAGCGGGCAGTTTTTAATCAGCGCCAACAATTTGGAGAGCAGCCCGGTTGACCTCACAAAGTAAGCCACTCAATATGCTGTAAATCAATCAGCAGGGATGATTACCGACATGGCCTTTGACGCGTATTTGAAAATCGACGGAATTCCAGGTGAAGCTCTTGACGCTCAATTTAAGGACTGGATCGAAATGGAAAATTTCGACCTAGGAGCAAGCCAGTCCGCCTCTGTCACGG (dsDNA)	LysR family transcriptional regulator 1-307	EMSA	double-stranded DNA, one strand shown			binding	binds
TGCCGTCGCCGAACTGATCGGGAGCGAGTGCGGCGACGGGCTTCGGCCCGCGCCGCTCTCATGAGTCCGCGTCAGTTTCGCGCCCCGGCAAGGGCGACACGAACGGGTGAAGCGGGAGGCACACGTGTCCCCTGCCGTCTCCACCGGTAACCTCACACTCATGGC (dsDNA)	T1, AfsR 1-980 (Streptomyces avermitilis)	EMSA	double-stranded DNA, one strand shown			binding	no binding
GGGCGGGGGAGACAUAUAUCACAGCCUGUCUCGUGCCCGACCCCGCCC (RNA (Hepatitis C virus); hairpin; bulge; 12 nt apical loop)	HNRNPA1 1-249 (Homo sapiens)	ITC	folded RNA			Kd	286 ± 63 nM
insulin human		refers to: GLS mRNA	EcoHIV-infected mouse, brain	i.p., dose not given	relative to: PBS	fold change	1.12
RNA 1 AACAAAACAAAAUAGCACCGUAAAGC / RNA 2 GCUUUACGGUGCUA (dsRNA; 14 bp duplex, 5' 12 nt overhang)	rhlE (Pseudomonas aeruginosa, UniProt Q9I689)	fluorescence polarization	double-stranded RNA			Kd	1.5 nM
GAGCTTCTCCCTGGCTTGGGACGGGCTGACGTGAACCACGGGACCCGAGAAGGGCTGAGGAAGGGCTGGAGAGCTGCGGAAGAGCTGCGGAGGAGCTGCGGAAGAGCTGCGGAAGAGCTGGAGGTCAAAGATACGTACTAGACGGTTTTGTCTTCAAGTCCCTCTTGCGGTCAAGGGTCATCCCTTACAAGGGAGTTGGGGGTGAGATATGTGTTTTTGAGTGGTTTGTGAGAGGGCG (dsDNA)	T1, AfsR 1-980 (Streptomyces avermitilis)	EMSA	double-stranded DNA, one strand shown			binding	binds
AUUUUAUGUUUCAGGU (ssRNA (simian virus 40); phosphorothioate at nucleotide 2)	CSTF2 1-107 (Homo sapiens, UniProt P33240)	NMR PRE	RNA			binding	binds

Repeated from above:
Molecule	tested on	assay	system	conditions	how to read	endpoint	result
GATTACTTTTTTGCAATTTCATATGATCAATCCCCTTTATTTTAATATGTCATTAATTATACAATTAAATGGAAAATAGTGATAATTACAAAGAAAAAAATATTGTCAAATGTAGCAATGTTGTAATACAATATAGAAACTTTTTACGAATATTTAGCATGAATTGCAATTTGTCGTGGAAAAGAAGAATAACAGATTTAAGAATGACATGGAGAAAAAAGAGGTGAGCAT (dsDNA)	mgrA full length assumed (Staphylococcus aureus, UniProt Q99VT5)	EMSA	double-stranded DNA, one strand shown			Kd	9200 ± 4200 nM
